Experimental data pooled from the literature.
Lines come from different studies, so protocols differ. ± marks the error that the study gave.
Action: inhibitor
rep papain-like protease: Replicase polyprotein 1ab, papain-like protease (rep, Severe acute respiratory syndrome coronavirus 2, UniProt P0DTD1)
rep main protease: Replicase polyprotein 1ab, main protease (rep, Severe acute respiratory syndrome coronavirus 2, UniProt P0DTD1)

Structure (SMILES) | target | assay | system | conditions | Ki
Cc1ccc(OCCN(C)C)cc1C(=O)N[C@H](C)c1cc(-c2cnn(C)c2)cc(-c2cnn(C(C)C)c2)c1 | rep papain-like protease | enzyme activity, FRET | – | – | 0.0476 µM
Cc1ccccc1[C@@H](C)N(C)Cc1cc(O)ccc1Cl | rep papain-like protease | enzyme activity, FRET | – | – | 2.1 µM
Cc1ccc(OCCN(C)C)cc1C(=O)N[C@H](C)c1cc(-c2cnn(C)c2)cc(-c2cnn(C3CC3)c2)c1 | rep papain-like protease | enzyme activity, FRET | – | – | 0.0332 µM
C=C1CCC2C(C)(CO)C(O)CCC2(C)C1CC(SC(=S)N1CCN(Cc2cc(F)c(F)cc2F)CC1)C1=CCOC1=O (stereo not shown) | rep main protease | enzyme activity, fluorescence | – | – | ~48.3 µM
O=C(Oc1cncc(Cl)c1)c1ccco1 | rep main protease | enzyme activity | – | – | 0.56 µM
CC(C)CC(NC(=O)OCc1ccccc1)C(=O)NC(CC1CCNC1=O)C(=O)C(=O)NC1CC1 (stereo not shown) | rep main protease | enzyme activity, FRET | – | – | 0.036 µM
Cc1ccc(CNC(=O)c2ccc(F)c(F)c2)cc1C(=O)N[C@H](C)c1cccc2ccccc12 | rep papain-like protease | enzyme activity | – | – | 5.4 µM
CC(=O)Nc1ccc(-c2cnc(N3C(=O)CSC3c3cc4ccccc4nc3Cl)s2)cc1 (stereo not shown) | rep papain-like protease | papain-like protease activity | SARS-CoV-2 | 15 min, 37 °C, together with: substrate 40 µM | 8.75 ± 0.87 µM
C=C1CC[C@@H]2[C@](C)(COC(C)=O)[C@H](OC(C)=O)CC[C@@]2(C)[C@@H]1C[C@H](SC(=S)N1CCN(C(c2ccccc2)c2ccc(Cl)cc2)CC1)C1=CCOC1=O (stereo partly shown) | rep main protease | enzyme activity, fluorescence | – | – | 6.8 µM
Cc1ccc(OCCN(C)C)cc1C(=O)N[C@H](C)c1cc(-c2cnn(C)c2)cc(-c2cncs2)c1 | rep papain-like protease | enzyme activity, FRET | – | – | 0.0352 µM
COc1ccc(-c2cc(=O)c3c(O)c(Oc4ccc(-c5cc(=O)c6c(O)cc(O)cc6o5)cc4)c(OC)cc3o2)cc1 | rep papain-like protease | enzyme activity | – | – | 14.3 µM
Cc1ccc(OCCN(C)C)cc1C(=O)N[C@H](C)c1cc(-c2cccs2)cc(-c2ccc(CN)s2)c1 | rep papain-like protease | enzyme activity, FRET | – | – | 0.0755 µM
COc1ccc(-c2cc(=O)c3c(O)cc(O)c(-c4cc(-c5cc(=O)c6c(O)cc(OC)cc6o5)ccc4OC)c3o2)cc1 | rep papain-like protease | enzyme activity | – | – | 23.6 µM

A few entries again:
Structure (SMILES) | target | assay | system | conditions | Ki
Cc1ccccc1[C@@H](C)N(C)Cc1cc(O)ccc1Cl | rep papain-like protease | enzyme activity, FRET | – | – | 2.1 µM
